Assay results collected from several papers.
Every numbered part comes from another study and shows a few of its results, in no order.

Series 1
Target: PABPC1L2, full length, GST fusion (mouse, UniProt A0ABA7IW68)
Method: RNAcompete
Molecule type: RNA
Medium: in vitro
Tested at: 20 nM
Setting: 7-mer, probes averaged, single round
Relative to: mean of 7-mers
Direction: higher = stronger binding
Target sequence (chain): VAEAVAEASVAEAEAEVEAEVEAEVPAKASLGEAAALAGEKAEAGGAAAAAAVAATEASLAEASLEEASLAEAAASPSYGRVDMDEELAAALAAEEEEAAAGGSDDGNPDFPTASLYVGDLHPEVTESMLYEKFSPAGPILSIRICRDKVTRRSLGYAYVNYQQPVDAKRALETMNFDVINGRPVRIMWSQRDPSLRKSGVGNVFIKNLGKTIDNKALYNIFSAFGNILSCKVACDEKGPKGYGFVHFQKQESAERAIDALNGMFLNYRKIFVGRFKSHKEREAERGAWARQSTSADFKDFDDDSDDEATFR
Strand | 7-mer Z-score
GAAAACC | 1.2
GAUGGAU | -0.15
AUUCUUU | -0.0881
GCGAUUU | -0.0573
UCAGUGA | -0.133
UGUCCAC | -0.335
GCGUGCC | -0.0718
GUCUACC | -0.295
UCGCUAA | -0.209
GGAACCC | 0.0642
GCAUUCG | -0.231
UCAAAUU | -0.0881
AUAUAAG | 0.122
CUCGGGA | 0.00254
AUAUGGU | -0.0573
CUGACUA | 0.00436
GUAACCG | -0.0935
GGCGAUC | 0.000733
AGUCUCA | -0.117
CCUCAGU | -0.313
ACAUUAC | 0.00979
CCAAGCA | -0.17
AAAGGUA | 0.704

Series 2
Target: RING finger protein unkempt homolog, zinc fingers 1-6, GST-SBP tag (UNK, Homo sapiens, UniProt Q9C0B0, residues 30-357)
Sequence of UniProt Q9C0B0 (30-357, looked up): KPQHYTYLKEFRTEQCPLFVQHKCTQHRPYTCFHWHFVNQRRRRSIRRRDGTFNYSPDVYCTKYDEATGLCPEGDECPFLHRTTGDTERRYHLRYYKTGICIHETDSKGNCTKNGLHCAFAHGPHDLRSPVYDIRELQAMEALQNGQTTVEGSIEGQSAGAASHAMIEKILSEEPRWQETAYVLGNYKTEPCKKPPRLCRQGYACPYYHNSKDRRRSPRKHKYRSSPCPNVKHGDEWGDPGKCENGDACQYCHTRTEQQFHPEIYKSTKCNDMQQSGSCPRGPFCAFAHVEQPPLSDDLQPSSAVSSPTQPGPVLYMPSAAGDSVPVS
Method: RNA Bind-n-Seq
Molecule type: RNA
Medium: in vitro
Tested at: not given
Setting: RNA with constant flanks, human and mouse sites, ends assumed
Relative to: input RNA pool
Direction: higher = stronger binding
Shared flanks, not repeated: GGGAGUUCUACAGUCCGACGAUC … CAACAGAGGAUUGAGCAUCA
Strand | bound/input enrichment
GUCGACGUGUGCAGAAGUCCUGGUAAUCUGGUCCUUGUUCCCGUCUGGAUACCAGCUUCCUUCAGCAGCGCAGGCGGUGGUCCCUGAGGCCCGUGGAAGGAGUCAAACUUGCGGGAAUUU | 0.11 ratio
GCAAGCCCCAAGGCUGAGCCCAUCUGGGAGCUCCCUACCCGUGCACCCAGGCUCUCUAUUGGGGACCUGGACUUUUCAGAUCUAGGGGAGGAUGAAGACCAGGACAUGCUGAAUGUAGAG | 0.371 ratio
CUGAGUCAUCCAUCCAGAAGGGGGGAGAGCAGAGCGCAGCCGCCCAGGCAGGAGCAUCAGCCAGCGAUACCUGGAGUCUGCAGAAACCUCGCCCGCACUUUGCAACAAAGGCAGCCAGCU | 0.167 ratio
GUGGUUUGUCUUAUCUCCUGCCUUGAUCUUCCAUGUCAUUUCCCAGUGGGCAACUAUCAUUAGUUUAUACCUCGAUUUUAUUUGCCCUGUGUAAUUUUUAACUAAAAAUGUUACAUAACC | 0.548 ratio
CCAUUUAAAGACAGAAUCAGCUGGGCUGGAGACCUUGACAAGAAAGAUGCAUCAAUCAACAUAGAAAAUAUGCAGUUUAUACACAAUGGCACCUAUAUCUGUGAUGUCAAAAACCCUCCU | 0.541 ratio
AAACUGAAAGACCACUAUCUGGAGUUUGAGAAAACCCGCUAUGAAAUGUAUGUCAGCAUUCUCAAGGAAGGAGGCAAAGAGCUACUGAGUAACGAUGAAAGCGAGGCUGCAGGACUGAAG | 0.318 ratio
UAGCUCAGAGGCGAUGUGGACCCUGUUCCCCAGGGUCAGGUUACCACAGACCUGUUUGUUUGUUAUGCAGUUCAUGGAGUCUCCCUGGAUUGUCUGGUUUCCCUUUCAGGGCUCCCUCCC | 0.195 ratio
AUUCAUCGGAUUCGACAUUUUUAUAUGAGAAAAGUCAAAUUUACUCAACAGAAUUACCAUGACAGACUGUCACAGAUUCUGUCGGAUUUCCCCAAAUUGGAUGAUAUCCAUCCGUUUUAU | 0.16 ratio
CACCGCUCCCCACACAUUCCAUACAAGCUGCUGCACCUGGUGUGGACGCACGCCCGGCACCUGGCGGGUUAUGAGCAGCAGGACGCACAUGAGUUCCUCAUUGCAGCCCUGGACGUCCUC | 0.159 ratio
GCACUUUUCCCCAAUUCAUGUUUGGUGGGGCCAUCCACACCCUCUCCUUGUCACAGAAUCUCCAUUUCUGCUCAGAUUCCCCCCAUCUCCAUUGCAUUCAUGUACUACCCUCAGUCUACA | 0.788 ratio
AUCCAUGCUGCCACCCUCAAGUUGCUAGAGGACCAAGAACUUAGUGUUUCAAGCGUCGUGAAUUUCCAGAUAAUCUCUGUCUACAGACAUAAGAAGUUGCACAAGAUGCUUGAAGAGAAA | 0.549 ratio

Series 3
Target: Interferon regulatory factor 5, full length, phosphomimetic (IRF5, Homo sapiens, UniProt Q13568-2, residues 1-514, S451D/S453D/S456D/S462D)
Method: protein-binding microarray
Molecule type: double-stranded DNA, one strand shown
Medium: in vitro
Tested at: 940 nM top
Setting: 60-bp whole probe
Together with: salmon DNA 0.4 mg/ml
Relative to: random background probes
Direction: higher = stronger binding
Shared flanks, not repeated: GCCTAGCAC … GTCTTGATTCGCTTGACGCTGCTG
Strand | fitted relative affinity [z-score]
TCAAAACTCTTTATTTAACTGTGCTAG | 0.758
TTAGGTATCGGTATAGGTTAGTGCTAG | 9.85
GACGGTATCGACACTGGGAACGTGCTA | 3.91
TTTTTTTTTTTTTTGTATTTGTGCTAG | 1.34
GACGGACTGGGGTTTCGGTACGTGCTA | 4.94
GGCGGTATCCTTTTCCTGACGTGCTAG | 0.794
TATTGTTTCCTTCCTCTTTTGTGCTAG | 2.29
GGATGAAGCGCTTCTCGAGTGGTGCTA | -0.658
TTAGATTTCGGTTTCGATTAGTGCTAG | 9.44
GTCGATTTCAGTTCCGAGACGTGCTAG | 2.2
GACGGTCTCCTTTTCATGACGTGCTAG | 0.889
GGCGATATCAGTATCGAGACGTGCTAG | 2.66
TCCCCTTCTACTCTCCTGCAGTGCTAG | 1.33
GACGGACTGGGGTCTGGGGACGTGCTA | -0.486
TCCTGTTTGATAATTTTTTTGTGCTAG | 1.11
GACGGTCTCGGACTGGGGAGGTGCTAG | 0.923

Series 4
Target: Histone acetyltransferase KAT6A, winged helix 2, GST fusion (KAT6A, Homo sapiens, UniProt Q92794, residues 85-181)
Method: protein binding microarray
Molecule type: double-stranded DNA, one strand shown
Medium: in vitro
Tested at: not given
Setting: 8-mer, flanks averaged, mean of 2 arrays, mostly near background
Relative to: not given
Direction: higher = stronger binding
Construct (chain): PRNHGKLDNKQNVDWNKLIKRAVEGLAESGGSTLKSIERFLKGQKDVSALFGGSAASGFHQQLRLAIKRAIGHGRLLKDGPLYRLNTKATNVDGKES
Strand | E-score
ACATAAGC | -0.16
GTCGCCTA | 0.0566
ATCTTGAC | -0.0791
CGGGACAG | 0.212
TACCACGA | 0.0314
ATTACTAG | -0.183
TGCCCCCA | -0.145
AATGCAAT | -0.198
GGGAACCC | 0.212
GCCTAACC | -0.141
CGGAAACC | 0.0196
GCTTGGCC | 0.155
AGGGTTTG | 0.026
GCCTTAGA | 0.0105
AGCTCCTA | -0.035
AGCAAACA | -0.00189

Some of these lines once more (series 3):
Strand | fitted relative affinity [z-score]
GACGGTCTCGGACTGGGGAGGTGCTAG | 0.923
GTCGATTTCAGTTCCGAGACGTGCTAG | 2.2
TATTGTTTCCTTCCTCTTTTGTGCTAG | 2.29
GGCGGTATCCTTTTCCTGACGTGCTAG | 0.794
TTAGATTTCGGTTTCGATTAGTGCTAG | 9.44
GGCGATATCAGTATCGAGACGTGCTAG | 2.66
GACGGTATCGACACTGGGAACGTGCTA | 3.91
